Assay results pooled from the literature.
Every numbered part comes from another study and shows a few of its results, in no order. Substitutions count along the parent as printed.

Sample 1
Target: RNA binding protein fox-1 homolog 2, RRM domain, GST-SBP tag (RBFOX2, Homo sapiens, UniProt O43251-10, residues 100-194)
Method: RNA Bind-n-Seq
Molecule type: RNA
Medium: in vitro
Concentration: 365 nM
Notes: natural RNA segment, single round, ends assumed
Reference: no-protein control
Direction: higher = stronger binding
Target sequence (chain): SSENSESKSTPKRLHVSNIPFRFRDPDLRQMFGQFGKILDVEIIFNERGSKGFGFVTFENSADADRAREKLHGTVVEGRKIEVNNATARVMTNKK
Strand | RBNS enrichment (R)
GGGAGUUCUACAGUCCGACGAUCUGGUCAGCCCGCUCCCCAGGCCCGUCCCUGCCGCCGCCAGGUGUGGGCUCUAGGCAGGCCGACAAGGUUACACCUCCCAGAGCUUGUGAUCUUCAUUUUCUGACAGUCAAUGGAAUUCUCGGGUGCCAA | 0.285
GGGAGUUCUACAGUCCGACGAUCGGGCAGAGAGGGAAGGAGGGAGGAGGCAUCUUCCCUGAAGCCCCCAAUCUGGCCCCCCCCUCCCCAGACUUCCUCCCCAAAACACCCCAGCUUUCUGGCUUUUCUGAGGGUGGAAUUCUCGGGUGCCAA | 0.281
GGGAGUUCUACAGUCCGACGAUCGAAUGCACACAGGUCUUCAGGGAGUUUGACUGUCCUUACCCAGAGUCCUCUCUGAUGCAGCUGACCUACCUGGGCAUGACAAGCCUGUCAUCUCGCCUGGGGACCUGGUUUGGAAUUCUCGGGUGCCAA | 0.705
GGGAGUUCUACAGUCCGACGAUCUGUUCCUAGAAAAGUAAUAACAUAUGCUUAUCUUUAUUCUUUUUCCAGGUGAUUUUGUUUUCAAAUGCUCCUUGUGAAAACACCUAGUGUUGUAGAAAGGAAAGUGGCCAUGGAAUUCUCGGGUGCCAA | 0.543
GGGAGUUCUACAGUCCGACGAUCUAUGAGGGAGACAAAUGAGUUGAUAGUUUGAAUUAUAGGAUUUUUGCCACGUUACCUUGAUGCAAAUUUGCCAAAUCUGAUACUGUGAAAAGAUUUGAUAACUUUUCUAAUGGAAUUCUCGGGUGCCAA | 0.876
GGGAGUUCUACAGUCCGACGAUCAAACCUAAAGAAAUUACUUUUUUGCUAAAAAAAAAAAAAUCAAAUGAUUUAACAGUUUCUGUGUAUGUUAAACUUUCAAGUGUUUUUUUAAAUCAUAAUGUGUAAUAAUUUGGAAUUCUCGGGUGCCAA | 1.96
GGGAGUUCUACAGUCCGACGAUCGCUCGUAUGUCAGGGACAGGUGUUUGGCAGAAGAGACUUCUAGGUUACUGCUAGAUUCCAAUUCAACUGCCUUGUAGCCUGGGAAGCCCAGCAAGUCAUAACCUCCUGUCUGGAAUUCUCGGGUGCCAA | 0.388
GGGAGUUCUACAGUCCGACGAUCAGCCUGGCCAGGUGGCCCUCCACGUGAGGUCAUGGUCACAGCAUGGGGGCCUUGAGUGCCUGGCCAGGUGGCCCUCCACGUGAGGUCAUGGUCACAGCAUGGAGGCCUUGUGGAAUUCUCGGGUGCCAA | 10.1
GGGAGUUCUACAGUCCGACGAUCGUAUCAAAGCAUAUAAAAUAUUUUCUAUGUAAGUAAAUUGCAUCUUUAUGCUAGUGAACAAAGUAGCAAUAAAUGUUCAUUUUUGGAUGGCAGUACACAUUGUUAACAAUUGGAAUUCUCGGGUGCCAA | 0.312
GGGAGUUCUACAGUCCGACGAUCGUAGCUGAGGAGGAGGGGAAGCCCCUUCAAAGUGUCGAUGUGGCCUUAUAAGUGUCAUACGUCACCCUACAGCAAACACGUGACAACCAUCCUGGGCUCUCAUCUGAACCUGGAAUUCUCGGGUGCCAA | 0.235
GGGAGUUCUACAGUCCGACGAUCAUCUGAAUUUCAGAUUCAGAUCAGGCAUUGGCUGUAAAGUCUACCACGAAGUCCCAAUCUACCCUUCCCUCAACCUCUUUCUCAAGGAGGAAACUCCCCACCUCACCCUGUGGAAUUCUCGGGUGCCAA | 0.7
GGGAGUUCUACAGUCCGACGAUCAAGGCAGACACCCAAUCCUGCCCCCACACUCGGGGUCCUCCAAGAGGUUGGGGGGCAGAGUCCCAGAGCAGCCCUUUACCCCAGGUCCAGGCCCUGGAAUCCUGAGACUCUGGAAUUCUCGGGUGCCAA | 0.247

Sample 2
Target: ABI1, truncated, D143A, DHFR fusion (Arabidopsis thaliana)
Method: DHFR PCA, deep sequencing
Medium: yeast
Notes: methotrexate growth selection, single substitutions
Added: (+)-ABA 17 µM
Reference: wild-type fitted maximum
Direction: higher = stronger binding
Parent: PYL1, truncated, DHFR fusion (Arabidopsis thaliana); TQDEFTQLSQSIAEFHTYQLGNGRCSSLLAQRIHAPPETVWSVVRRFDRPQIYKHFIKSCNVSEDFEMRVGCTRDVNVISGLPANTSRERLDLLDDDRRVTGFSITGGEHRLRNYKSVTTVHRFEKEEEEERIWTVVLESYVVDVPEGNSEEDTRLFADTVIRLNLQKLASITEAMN; partner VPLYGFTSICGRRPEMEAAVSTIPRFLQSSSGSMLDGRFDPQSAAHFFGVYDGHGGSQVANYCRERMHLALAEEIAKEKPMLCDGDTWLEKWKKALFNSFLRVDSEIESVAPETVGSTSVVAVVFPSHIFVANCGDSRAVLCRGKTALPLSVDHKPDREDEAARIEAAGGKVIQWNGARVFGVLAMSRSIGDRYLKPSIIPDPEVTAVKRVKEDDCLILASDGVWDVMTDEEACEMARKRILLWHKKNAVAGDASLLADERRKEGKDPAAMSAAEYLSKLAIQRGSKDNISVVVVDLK
Variant | relative binding score [%]
M68A | 63.2
F56I | -10.3
T173D | -6.85
D96M | -3.61
S171V | 82
E128F | 73.4
G71F | 0.678
H110P | 22.4
V76S | 0.0543
R24H | 58.4
F47L | -11.8
N149D | 10.4
C60E | -16.6
A170M | 63.2
T39P | 28.8
R163I | 16.9
R123E | 101

Sample 3
Target: Prothrombin, mature alpha-thrombin (F2, Homo sapiens, UniProt P00734)
Method: aptamer microarray, sandwich
Molecule type: DNA with 2'F-ANA
Medium: in vitro
Concentration: 200 nM
Notes: whole 15-mer aptamer, many near background
Added: Cy3 exosite-II aptamer, 400 nM
Direction: higher = stronger binding
Strand: GGTTGGTGTGGTTGG
Modification | mean fluorescence intensity [a.u.]
2'F-ANA at 1 4 5 8 9 10 11 12 13 14 15 | 158
2'F-ANA at 1 2 3 4 5 6 8 11 12 13 14 | 61.5
2'F-ANA at 2 5 9 11 14 15 | 51.1
2'F-ANA at 1 2 4 5 8 9 10 11 12 13 14 15 | 52.7
2'F-ANA at 1 4 6 7 10 11 13 15 | 56.5
2'F-ANA at 2 3 4 5 6 7 9 10 12 13 14 | 48.4
2'F-ANA at 3 4 5 6 7 8 11 12 14 | 52.1
2'F-ANA at 1 2 3 4 6 9 10 12 14 | 51.9
2'F-ANA at 1 2 4 6 7 10 14 15 | 48.7
2'F-ANA at 1 2 4 6 7 8 9 10 11 13 14 | 49.6
2'F-ANA at 2 4 5 6 8 9 15 | 67.9
2'F-ANA at 6 7 10 11 13 15 | 172
2'F-ANA at 1 4 5 8 10 11 15 | 49.7
2'F-ANA at 1 8 11 13 15 | 194
2'F-ANA at 1 2 4 6 9 11 13 15 | 57.8
2'F-ANA at 1 6 8 9 11 12 | 322
2'F-ANA at 1 3 4 5 6 7 10 11 13 14 15 | 48.4
2'F-ANA at 2 3 4 5 6 8 9 12 | 227
2'F-ANA at 3 4 6 7 8 9 10 11 13 | 187
2'F-ANA at 1 4 6 7 8 10 12 14 | 45.1
2'F-ANA at 5 6 9 10 13 | 49.8
2'F-ANA at 3 5 10 11 12 13 14 15 | 55.6
2'F-ANA at 2 3 5 6 9 11 13 14 15 | 51.7
2'F-ANA at 1 5 6 9 12 13 15 | 84.4
2'F-ANA at 1 3 4 8 11 12 13 | 296

Sample 4
Target: CCNB1, cyclin fold, Cln2 fusion (human)
Method: yeast growth competition, sequencing
Medium: yeast
Notes: strong parent motif
Reference: not given
Direction: higher = stronger binding
Parent: E2F1 docking peptide (human); PPVKRRLDLETDH; partner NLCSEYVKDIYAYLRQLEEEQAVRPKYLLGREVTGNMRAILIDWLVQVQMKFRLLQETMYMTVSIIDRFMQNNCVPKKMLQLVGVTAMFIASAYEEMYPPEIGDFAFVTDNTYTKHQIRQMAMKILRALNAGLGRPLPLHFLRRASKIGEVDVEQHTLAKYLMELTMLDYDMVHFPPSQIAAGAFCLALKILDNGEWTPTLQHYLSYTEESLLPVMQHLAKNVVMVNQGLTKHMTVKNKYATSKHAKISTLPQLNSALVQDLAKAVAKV
Variant | normalised enrichment score
H13Q | 1.74
T11P | 2.76
D8R | 0.822
R5L | 0.359
R6N | 0.773
D12N | 0.767
E10M | 0.767
R5F | 0.399
L7D | 0.172
P1L | 2.47
P1Q | 1.73
D12V | 1.24
P1R | 0.577
R5D | 0.7

Other studies, line by line
Molecule | target | test | system | setting | how to read | quantity | value
PhoQ, residues 284 288 289 292 302 303 SCKMEA | PhoP, residues 12 14 15 18 19 LQHIR (Escherichia coli, UniProt P23836) | Sort-seq, item: YFP reporter | E. coli | PhoQ-PhoP variant library, added: 10 µM Mg2+ | reference: high Mg2+ state, higher = stronger signaling | fold induction | 14.4

Some of these lines once more (sample 2):
Variant | relative binding score [%]
G71F | 0.678
A170M | 63.2
T173D | -6.85
N149D | 10.4
